Measured values from different studies.
Lines come from different studies, so protocols differ. Numbers after ± are the reported error.

`CC(N)C12CC3CC(CC(C3)C1)C2` (stereo not shown) has an EC50 of greater than 200 µM (Influenza A virus; viral cytopathic effect, visual CPE score; MDCK, H3N2).
With `O=C(N/N=C1\C(=O)Nc2ccc([N+](=O)[O-])cc21)N/N=C1\C(=O)Nc2ccc([N+](=O)[O-])cc21` the EC50 was 47 ± 2.5 µM (influenza A virus; cytopathic effect, visual CPE score; MDCK, H1N1).
`C/C(O)=C(\C#N)C(=O)Nc1ccc(C(F)(F)F)cc1` has an EC50 of 42.1 µM (human coronavirus 229E; viral replication, qPCR, item: viral RNA; MRC-5; 48 h).
`CCC(CC)O[C@@H]1C=C(C(=O)O)C[C@H](N)[C@H]1NC(C)=O` gave an EC50 of 9 µM (Influenza A virus; viral cytopathic effect, visual CPE score; MDCK, H3N2).
For `NC(=O)c1ncn([C@@H]2O[C@H](CO)[C@@H](O)[C@H]2O)n1`, the EC50 was 10.5 ± 0.65 µM (influenza A virus; viral replication, MTS viability; MDCK, H1N1).
`NC(=O)c1ncn([C@@H]2O[C@H](CO)[C@@H](O)[C@H]2O)n1` has an EC50 of 9.3 µM (Influenza A virus; viral cytopathic effect, MTS; MDCK, H3N2).
`O=C(N/N=C1\C(=O)Nc2ccccc21)N/N=C1\C(=O)Nc2ccccc21` has an EC50 of greater than 100 µM (influenza A virus; cytopathic effect, MTS; MDCK, H1N1).
`CCCCCCS(=O)(=O)N[C@H]1C(=O)N[C@@H]2Cc3ccc(c(Cl)c3)Oc3cc4cc(c3O)Oc3ccc(cc3Cl)[C@@H](O[C@@H]3O[C@H](CO)[C@@H](O)[C@H](O)[C@H]3NC(C)=O)[C@H]3NC(=O)[C@H](NC(O)[C@@H]4NC(=O)[C@@H](NC2=O)c2cc(O)cc(c2)Oc2cc1ccc2O)c1ccc(O)c(c1)-c1c(O)cc(O)cc1[C@H](C(=O)O)NC3=O` (stereo partly shown) gave an EC50 of roughly 2 µM (human coronavirus 229E; viral replication; HEL; 120 h).
`Cc1cc2c(c(=S)[nH]1)C(=O)O/C2=C\c1ccc(C)s1` has an EC50 of less than 20 µM (influenza A H1N1, H3N2, influenza B; cytopathic effect; MDCK, A/Puerto Rico/8/34, A/Hong Kong/8/68, B/Lee/40; range over three viruses).
For `CN[C@@](C)(C[18F])C(=O)O`, the tissue uptake was 0.9 ± 0.2 %ID/g (SCID mouse SK-OV-3 xenograft, muscle; 15 min, post injection).
`Cc1oncc1C(=O)Nc1ccc(C(F)(F)F)cc1` gave an EC50 of 59.5 µM (human coronavirus 229E; cytopathic effect, CellTiter-Glo; MRC5; 3 d).
`O=C(N/N=C1\C(=O)Nc2ccc(Cl)cc21)N/N=C1\C(=O)Nc2ccc(Cl)cc21` has an EC50 of greater than 100 µM (influenza A virus; cytopathic effect, visual CPE score; MDCK, H1N1).
For `Cc1ccsc1/C=C1\OC(=O)c2c1cc(C)n(C)c2=S`, the EC50 was less than 20 µM (influenza A H1N1, H3N2, influenza B; cytopathic effect; MDCK, A/Puerto Rico/8/34, A/Hong Kong/8/68, B/Lee/40; range over three viruses).
The EC50 of `CCC(CC)O[C@@H]1C=C(C(=O)O)C[C@H](N)[C@H]1NC(C)=O` is reported as 9 ± 0.22 µM (influenza A virus; viral replication, visual CPE score; MDCK, H1N1).
The EC50 of `Nc1ncnc2c1ncn2CCOCP(=O)(OCCCCCCCCC(O)CO)OCCCCCCCCC(O)CO` (stereo not shown) is reported as greater than 32.4 µM (influenza A virus H3N2; viral replication; MDCK).
The EC50 of `NC12CC3CC(CC(C3)C1)C2` is reported as 0.8 µM (Influenza A virus H3N2; viral replication, MTS; MDCK).
With `NC12CC3CC(CC(C3)C1)C2` the EC50 was 34 ± 0.1 µM (influenza A virus; viral replication, visual CPE score; MDCK, H1N1).
For `NC(=O)c1ncn([C@@H]2O[C@H](CO)[C@@H](O)[C@H]2O)n1`, the EC50 was 2 ± 0.2 µM (Influenza A virus H3N2; viral replication, MTS; MDCK).
The EC50 of `Cc1cc2c(c(=S)[nH]1)C(=O)O/C2=C\c1cc2ccccc2s1` is reported as less than 20 µM (influenza A H1N1, H3N2, influenza B; cytopathic effect; MDCK, A/Puerto Rico/8/34, A/Hong Kong/8/68, B/Lee/40; range over three viruses).

Some of these lines once more:
`CCC(CC)O[C@@H]1C=C(C(=O)O)C[C@H](N)[C@H]1NC(C)=O` gave an EC50 of 9 µM (Influenza A virus; viral cytopathic effect, visual CPE score; MDCK, H3N2).
For `NC(=O)c1ncn([C@@H]2O[C@H](CO)[C@@H](O)[C@H]2O)n1`, the EC50 was 10.5 ± 0.65 µM (influenza A virus; viral replication, MTS viability; MDCK, H1N1).
